Experimental data gathered from unrelated publications.
Parts stem from different laboratories: compare values within a part only. Changes are numbered by the printed parent chain.

Set 1 — method: RNA Bind-n-Seq; form: RNA; sample: in vitro; tested at: 365 nM; reference: no-protein control; direction: higher = stronger binding
Target: RNA binding protein fox-1 homolog 2, RRM domain, GST-SBP tag (RBFOX2, Homo sapiens, UniProt O43251-10, residues 100-194)
Setting: natural RNA segment, single round, ends assumed
Construct (chain): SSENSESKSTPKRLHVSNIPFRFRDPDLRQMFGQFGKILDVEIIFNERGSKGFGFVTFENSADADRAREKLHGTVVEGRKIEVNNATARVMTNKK
`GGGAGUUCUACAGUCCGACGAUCAAGGAGGGUAGAAUAAGCAUUUAUUCCCCUGCCUUCCAAAUUGAAGAGGAGGACUUGGCCUCAAGCCUGAAGAACAAAAGUCUCAGAAAGCAAAGAACAGCAUCACCUUGUGGAAUUCUCGGGUGCCAA`: “RBNS enrichment (R)” 0.769.
Under “RBNS enrichment (R)”, `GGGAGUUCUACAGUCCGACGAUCCAUGAAGAGUUUGGAUAUUUUUAAAACUAUACUCGAAUUUUCAUUUUUUCCUGUCCUGUAAAGAGAGAAUUCUUAAGAUAUCAGGCAUAAUGUAUGUACCUUUUCCAGACUGGAAUUCUCGGGUGCCAA` is recorded as 0.679.
`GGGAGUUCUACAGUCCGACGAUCUACCUGGGGUGUGUAGACAGACAGACUGAGAGCUAUCAGCAUUUGAAGGCCCAGCCCUUGACUCUGAGACACAUUUGAAUUUUUUCUUUCCCAUCAAAUGGCAUUAACAAUGGAAUUCUCGGGUGCCAA` — result for “RBNS enrichment (R)”: 4.
`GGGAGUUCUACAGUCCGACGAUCUCUGCAGGGCAUAUUAAGAUCAUCCCAGAGGUUCAGGCAGUUCCUGUCAUCUCUGAAAAGACUGGGGGAUAUGAAAUCUUCCCCCUACCCCACUUAAUGCGUUGGAUAUGUGGAAUUCUCGGGUGCCAA`: “RBNS enrichment (R)” 0.319.
For `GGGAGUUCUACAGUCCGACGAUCAACUGUGACCUGAUCCCUACCCCACAUGCUGUCUCCUUUUCUUUGGGAGUUAGCAACAUUUGAGGAUGUUGUAGGUACUUUAUUACAUUUUUUUGUAGUUUAAAGAGCUUUGGAAUUCUCGGGUGCCAA`, “RBNS enrichment (R)” read 0.213.
`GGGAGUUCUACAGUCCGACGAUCUACUGAUGCUCAGUAACCAUGAAAAACUGUGCACAUUCAUGUACUAAUAGAUCUGUACCUAUCUAUCUCUGUACGCAUAUAUACAGUUCACUGUAGAAAACCACAGCUAGUGGAAUUCUCGGGUGCCAA`: “RBNS enrichment (R)” 0.354.
For `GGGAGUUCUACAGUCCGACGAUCGCUCCUGCCGGGUUCCUGCUCAGGCUGGAAUUGGGAAAAUAUGCAGGUGACAUUUGUUCAUUCUCUAAUCCCAUCCUCUCACCCAUCCAUUUCCUCACUCAGUGGAGAUUUGGAAUUCUCGGGUGCCAA`, “RBNS enrichment (R)” read 0.191.
`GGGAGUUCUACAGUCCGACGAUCAAAAUAUGCAUGUUGUCUCUGAAAAGUAGGCAUUGAAACAGACUUUUUUGUAGUCAGUGUUAAUAAAACGGAUCCUGUUUGGGCCUUCAUUGUUAAGGUGGACUUCAUGGUGGAAUUCUCGGGUGCCAA` — result for “RBNS enrichment (R)”: 2.09.

Set 2 — method: protein binding microarray; form: double-stranded DNA, one strand shown; sample: in vitro; tested at: not given; reference: not given; direction: higher = stronger binding
Target: Histone acetyltransferase KAT6A, both winged helices, GST fusion (KAT6A, Homo sapiens, UniProt Q92794, residues 1-181)
Setting: 8-mer, flanks averaged, mean of 2 arrays, mostly near background
Target sequence (chain): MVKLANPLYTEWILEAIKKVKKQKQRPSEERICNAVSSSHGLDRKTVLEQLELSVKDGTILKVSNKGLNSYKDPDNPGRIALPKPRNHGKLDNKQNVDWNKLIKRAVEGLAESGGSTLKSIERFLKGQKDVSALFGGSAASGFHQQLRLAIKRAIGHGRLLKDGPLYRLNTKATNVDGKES
The E-score of `AAAAAATG` is reported as -0.119.
`CACGCCAG` has an E-score of 0.0237.
`CCCGACCG` has an E-score of 0.173.
With `AACTAATT` the E-score was -0.086.
The E-score of `CTTCTTAA` is reported as -0.127.
The E-score of `CGCGACTC` is reported as 0.138.
`GACCATAA` gave an E-score of -0.133.
`AGAGGTGG` has an E-score of -0.201.
For `CCCGGTAA`, the E-score was 0.198.
With `GGGGATAA` the E-score was -0.111.
`GTGGTAAA` gave an E-score of -0.139.
For `ACGCCAGG`, the E-score was 0.0298.
`ATCTGGTA` gave an E-score of -0.122.
For `CTCGATAA`, the E-score was -0.0538.
The E-score of `ACATCAGC` is reported as 0.00843.
With `GCCATCAC` the E-score was 0.0136.
`CCACCACC` has an E-score of -0.177.
With `GGTCCCAC` the E-score was -0.0474.
`CGGACCCG` gave an E-score of 0.306.
`AAGGCGAG` gave an E-score of -0.0242.
`AAGAAACT` gave an E-score of -0.179.
The E-score of `ACTTGATA` is reported as -0.103.
`ACTCTCGA` gave an E-score of -0.134.
For `AAGTGCTA`, the E-score was -0.156.
`CCGTACAG` gave an E-score of 0.146.

Set 3 — method: RNA Bind-n-Seq; form: RNA; sample: in vitro; tested at: 20 nM; setting: 6-mer, flanks averaged, single round; added: 150 mM KCl; reference: input library; direction: higher = stronger binding
Target: TAR DNA-binding protein 43, full length, His tag (TARDBP, Homo sapiens, UniProt Q13148, residues 1-414)
`UUGGAU` — result for “6-mer enrichment (R)”: 0.719.
For `AGACGU`, “6-mer enrichment (R)” read 0.814.
For `UGUUAA`, “6-mer enrichment (R)” read 0.672.
Under “6-mer enrichment (R)”, `UGCAGA` is recorded as 0.857.
For `GUAGGU`, “6-mer enrichment (R)” read 1.29.
For `ACAAAA`, “6-mer enrichment (R)” read 0.683.
`AUAACG`: “6-mer enrichment (R)” 0.715.
For `CCGUGA`, “6-mer enrichment (R)” read 0.756.
`UGUUCU` — result for “6-mer enrichment (R)”: 0.596.
For `GUUCUC`, “6-mer enrichment (R)” read 0.575.
`AAAUGA`: “6-mer enrichment (R)” 0.688.
`AUCUAC` — result for “6-mer enrichment (R)”: 0.541.
Under “6-mer enrichment (R)”, `UGUCUU` is recorded as 0.621.

Set 4 — method: DHFR PCA, deep sequencing; sample: yeast; added: (+)-ABA 0.11 µM; reference: wild-type fitted maximum; direction: higher = stronger binding
Target: ABI1, truncated, D143A, DHFR fusion (Arabidopsis thaliana)
Setting: methotrexate growth selection, single substitutions
Starting sequence: PYL1, truncated, DHFR fusion (Arabidopsis thaliana); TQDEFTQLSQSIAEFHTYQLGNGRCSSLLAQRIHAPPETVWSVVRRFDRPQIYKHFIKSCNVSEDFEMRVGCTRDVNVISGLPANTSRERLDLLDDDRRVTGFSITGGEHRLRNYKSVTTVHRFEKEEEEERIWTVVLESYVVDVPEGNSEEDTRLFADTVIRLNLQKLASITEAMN
`H16W` — result for “relative binding score”: -2.33%.
`H55W` — result for “relative binding score”: 46%.
`V136R`: “relative binding score” 0.806%.
`D65Q` — result for “relative binding score”: 21.4%.
`R49D` — result for “relative binding score”: -0.465%.
`R69E` — result for “relative binding score”: 31.7%.
For `V137G`, “relative binding score” read 0.962%.
For `D96G`, “relative binding score” read -1.56%.
For `T173C`, “relative binding score” read 71%.
`V161W` — result for “relative binding score”: 73.9%.
`R132M` — result for “relative binding score”: 40.5%.
`V121A`: “relative binding score” 6.82%.
Under “relative binding score”, `I79Y` is recorded as 33.7%.

Set 5 — method: RNA Bind-n-Seq; form: RNA; sample: in vitro; tested at: not given; setting: RNA with constant flanks, ends assumed; reference: input RNA pool; direction: higher = stronger binding
Target: RING finger protein unkempt homolog, zinc fingers 1-6, GST-SBP tag (UNK, Homo sapiens, UniProt Q9C0B0, residues 30-357)
Chain of UniProt Q9C0B0 (30-357, looked up): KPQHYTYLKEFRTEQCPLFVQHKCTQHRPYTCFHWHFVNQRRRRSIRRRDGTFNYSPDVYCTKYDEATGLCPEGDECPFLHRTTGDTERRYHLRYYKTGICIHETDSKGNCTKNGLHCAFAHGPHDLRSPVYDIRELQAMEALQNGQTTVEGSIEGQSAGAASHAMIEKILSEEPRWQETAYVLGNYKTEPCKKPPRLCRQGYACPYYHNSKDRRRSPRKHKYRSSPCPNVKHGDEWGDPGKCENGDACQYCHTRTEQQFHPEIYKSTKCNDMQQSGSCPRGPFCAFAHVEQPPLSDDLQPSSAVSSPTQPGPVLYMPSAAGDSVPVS
For `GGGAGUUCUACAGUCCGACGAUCUCUCUGGAAGCUAUGGGCAGAGCUCAGUUCAUAGUUGUUGGGAAAUAAGUGCUUCAUUUUCCGUUGUUCUGAGUUGAUCCGCACCACUGCACCACAACUCAAUAUGAAAAACUAUUUAACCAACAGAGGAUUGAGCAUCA`, the bound/input enrichment was 0.164 ratio.
With `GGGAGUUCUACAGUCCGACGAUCCAGAAACUGGAAGAGAUGGUUACCCGUUUAGAUCAAGAAGUAGCCGAGGUUGAUAAAAACACCGAACUUUUGAAAAAGAAGGAUGAAGAACUCAGUUCUGCUCUGGAAAAAAUGGAAAAUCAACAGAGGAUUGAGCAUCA` the bound/input enrichment was 0.365 ratio.
The bound/input enrichment of `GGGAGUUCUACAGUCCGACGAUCUACCUCCAGAAGGCACUACUUCUAUCGUAGGGCGAGUCUAAUUGUUAGACAUUUCUUACUUACCGUGAUUGGAUUCUGCUUUCCUAUGACUUCUGCCUACUGGGUCUUGUUUUGUUCCUUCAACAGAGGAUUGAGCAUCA` is reported as 0.363 ratio.
`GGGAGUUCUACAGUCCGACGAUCUGGGCACUGUAUCAGAUAGAUUACUUUUUAAAUGUAGAUAAAAUUUCAAAAAUGAAUGGCCCGUUUACGUGAUAGAUUAGGCUCUUACUACAUAUGUGUGUGUAUAUAUAUGUAUUUGAUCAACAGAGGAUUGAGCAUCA` gave a bound/input enrichment of 10.9 ratio.
The bound/input enrichment of `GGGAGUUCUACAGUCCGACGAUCAAAAUCCUCCCUCAAAGGAUUCGGGAGCUGGUACCCGAGUCCCAGGCUUACAUGGACCUCCCCGCAUUUGAGAGGAAACUGGAUCAAACCAUCAUGCGGAAGCGGGUGGACAUCCAGGAGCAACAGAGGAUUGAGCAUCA` is reported as 0.165 ratio.
The bound/input enrichment of `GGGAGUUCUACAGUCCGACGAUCUUGGAAGGACCAGAGCCCAGUCAGCUCAAACCACUAGUUAUACAGGCUAUGCCCACCCUAACCGAAUUAAUGAAAGACCCCAGUGUAGUUGUUCGAGAUACAGCUGCAUGGACUGUAGGCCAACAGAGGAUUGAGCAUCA` is reported as 0.505 ratio.
`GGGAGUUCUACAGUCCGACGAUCCCCUGGCUGUCCUGGAACUCUCUCUGUAGACCAGGCUGGCCUCGAACUCAGGGAUCCACCCCGCUCUGUCUCUGAGUGCUGAGACUGAAGGUGUGCGCCGCCACGCCUGGCUUUUUUCCCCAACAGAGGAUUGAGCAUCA` has a bound/input enrichment of 0.134 ratio.

Some of these lines once more (set 5):
For `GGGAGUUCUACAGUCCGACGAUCUCUCUGGAAGCUAUGGGCAGAGCUCAGUUCAUAGUUGUUGGGAAAUAAGUGCUUCAUUUUCCGUUGUUCUGAGUUGAUCCGCACCACUGCACCACAACUCAAUAUGAAAAACUAUUUAACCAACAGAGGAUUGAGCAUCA`, the bound/input enrichment was 0.164 ratio.
With `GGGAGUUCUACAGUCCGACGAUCCAGAAACUGGAAGAGAUGGUUACCCGUUUAGAUCAAGAAGUAGCCGAGGUUGAUAAAAACACCGAACUUUUGAAAAAGAAGGAUGAAGAACUCAGUUCUGCUCUGGAAAAAAUGGAAAAUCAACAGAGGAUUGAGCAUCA` the bound/input enrichment was 0.365 ratio.
The bound/input enrichment of `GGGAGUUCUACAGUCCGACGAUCUACCUCCAGAAGGCACUACUUCUAUCGUAGGGCGAGUCUAAUUGUUAGACAUUUCUUACUUACCGUGAUUGGAUUCUGCUUUCCUAUGACUUCUGCCUACUGGGUCUUGUUUUGUUCCUUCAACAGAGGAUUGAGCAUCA` is reported as 0.363 ratio.
`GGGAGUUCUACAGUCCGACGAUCUGGGCACUGUAUCAGAUAGAUUACUUUUUAAAUGUAGAUAAAAUUUCAAAAAUGAAUGGCCCGUUUACGUGAUAGAUUAGGCUCUUACUACAUAUGUGUGUGUAUAUAUAUGUAUUUGAUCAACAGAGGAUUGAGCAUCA` gave a bound/input enrichment of 10.9 ratio.
The bound/input enrichment of `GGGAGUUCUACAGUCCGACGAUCAAAAUCCUCCCUCAAAGGAUUCGGGAGCUGGUACCCGAGUCCCAGGCUUACAUGGACCUCCCCGCAUUUGAGAGGAAACUGGAUCAAACCAUCAUGCGGAAGCGGGUGGACAUCCAGGAGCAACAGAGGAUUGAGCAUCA` is reported as 0.165 ratio.
The bound/input enrichment of `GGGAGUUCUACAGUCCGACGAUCUUGGAAGGACCAGAGCCCAGUCAGCUCAAACCACUAGUUAUACAGGCUAUGCCCACCCUAACCGAAUUAAUGAAAGACCCCAGUGUAGUUGUUCGAGAUACAGCUGCAUGGACUGUAGGCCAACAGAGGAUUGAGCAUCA` is reported as 0.505 ratio.
`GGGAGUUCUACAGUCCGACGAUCCCCUGGCUGUCCUGGAACUCUCUCUGUAGACCAGGCUGGCCUCGAACUCAGGGAUCCACCCCGCUCUGUCUCUGAGUGCUGAGACUGAAGGUGUGCGCCGCCACGCCUGGCUUUUUUCCCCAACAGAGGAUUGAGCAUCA` has a bound/input enrichment of 0.134 ratio.
